{"data": "Results from different studies", "note": "A part holds a random share of what one study measured."}
{"data": "Block 1", "target": "RNA binding protein fox-1 homolog 2, RRM domain, GST-SBP tag (RBFOX2, Homo sapiens, UniProt O43251-10, residues 100-194)", "technique": "RNA Bind-n-Seq", "form": "RNA", "matrix": "in vitro", "tested at": "365 nM", "notes": "natural RNA segment, single round, ends assumed", "baseline": "no-protein control", "direction": "higher = stronger binding", "Construct (chain)": "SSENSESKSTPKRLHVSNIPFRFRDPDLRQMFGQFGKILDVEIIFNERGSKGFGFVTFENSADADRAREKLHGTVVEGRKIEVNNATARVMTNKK"}
{"Sequence": "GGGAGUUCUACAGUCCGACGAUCCGCCGUCCCACCAGCUUCACUCUCUCCGUCUGUUUUUGCAACUAGGUAUUUCUAACGCCAGCACACUAUUUACAAGAUGGACUUACCUGGCAGACUUGCCCAGGUCACCAUGGAAUUCUCGGGUGCCAA", "RBNS enrichment (R)": 0.522}
{"Sequence": "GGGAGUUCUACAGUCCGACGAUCAGACUUUUGACACUUUUAAAAAACAAAAAAAGACAAGAGAGAUGAAAACGUUUGAUUAUUUUCUCAGUGUAUUUUUGUAAAAAAUAUAUAAAGGGGGUGUUAAUCGGUGUUGGAAUUCUCGGGUGCCAA", "RBNS enrichment (R)": 0.516}
{"Sequence": "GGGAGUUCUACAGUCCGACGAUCUCACAGCCACCUAAGUGCGCGGUGUUUUGUUGUUUGACUGUGUUAGAGAAGUUUGAAUGUUUGUGUCAGUUUUGGGUCAGCCUAGAUAAAGAUGGGAAAGAGGGAGUGUUUGGAAUUCUCGGGUGCCAA", "RBNS enrichment (R)": 1.93}
{"Sequence": "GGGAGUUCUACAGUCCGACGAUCCUGAAGAACUUUGGGGGGAAUUUUGUACUUUUUUCCUGUGUAAAUAUUGGACUUUUUUGAGCUUUAUCGUGGUUGUUAAUUUGAAGUAAUAAAGUAGAAAAGAUAAAGUGUGGAAUUCUCGGGUGCCAA", "RBNS enrichment (R)": 1.15}
{"Sequence": "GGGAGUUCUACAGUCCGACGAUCUGCAGAAAAGCUCAGAGUAGGUGGGUAGGAGCCCUUCUCUUUGACUUAGGUUUUUAGGAGUCUGAGCAUCCAUCAAUACCUGUACUAUGAUGGGCUUCUGUUCUCUGCUGUGGAAUUCUCGGGUGCCAA", "RBNS enrichment (R)": 0.237}
{"Sequence": "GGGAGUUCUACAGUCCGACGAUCUGACGACAGAGAUGAUGGUGUGGAUUAUUGGGCCAAAAGAGGAAGAGGUCGUGGUACUUUUCAACGUGGCAGAGGGCGCUUUAACUUCAAAAAAUCAGGUAGCAGUCCUAUGGAAUUCUCGGGUGCCAA", "RBNS enrichment (R)": 0.636}
{"Sequence": "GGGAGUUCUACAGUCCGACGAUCCAUGGGGCCUGUGCCCACCCCUCUUGAGUGUCUUGGGGACAGCUCUUUCCACCCCUGGAAGAUGGAAAUAAACCUGCGUGUGGGUGGAGUGUUAGGACCAACGGUUUCCUUGGAAUUCUCGGGUGCCAA", "RBNS enrichment (R)": 0.346}
{"data": "Block 2", "target": "Histone acetyltransferase KAT6A, winged helix 1, GST fusion (KAT6A, Homo sapiens, UniProt Q92794, residues 1-85)", "technique": "protein binding microarray", "form": "double-stranded DNA, one strand shown", "matrix": "in vitro", "tested at": "not given", "notes": "8-mer, flanks averaged, mean of 2 arrays, mostly near background", "baseline": "not given", "direction": "higher = stronger binding", "Residues (chain)": "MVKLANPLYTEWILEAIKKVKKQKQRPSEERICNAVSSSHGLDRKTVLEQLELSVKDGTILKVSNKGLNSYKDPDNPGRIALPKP"}
{"Sequence": "AGACTTCA", "E-score": -0.33}
{"Sequence": "AAATACAG", "E-score": -0.236}
{"Sequence": "AGTATCAC", "E-score": -0.141}
{"Sequence": "CAGACCAA", "E-score": -0.331}
{"Sequence": "CCGCCTTC", "E-score": 0.204}
{"Sequence": "GAGATTCA", "E-score": -0.204}
{"Sequence": "AATCATCG", "E-score": -0.043}
{"Sequence": "ATCTCTTC", "E-score": -0.137}
{"Sequence": "CGTTAAAC", "E-score": 0.00116}
{"Sequence": "GGTAATGA", "E-score": -0.0189}
{"Sequence": "AGCACTGA", "E-score": -0.248}
{"data": "Block 3", "target": "Interferon regulatory factor 7, full length, phosphomimetic (IRF7, Homo sapiens, UniProt Q92985, residues 1-503, S471D/S472D/S475D/S476D/S477D/S483D/S484D/S487D)", "technique": "protein-binding microarray", "form": "double-stranded DNA, one strand shown", "matrix": "in vitro", "tested at": "2200 nM top", "notes": "60-bp whole probe", "together with": "salmon DNA 0.4 mg/ml", "baseline": "random background probes", "direction": "higher = stronger binding", "shared flanks, not repeated": "GCCTAGCAC … GTGCTAGGTCTTGATTCGCTTGACGCTGCTG", "sequence of UniProt Q92985 (whole entry, unmodified, looked up)": "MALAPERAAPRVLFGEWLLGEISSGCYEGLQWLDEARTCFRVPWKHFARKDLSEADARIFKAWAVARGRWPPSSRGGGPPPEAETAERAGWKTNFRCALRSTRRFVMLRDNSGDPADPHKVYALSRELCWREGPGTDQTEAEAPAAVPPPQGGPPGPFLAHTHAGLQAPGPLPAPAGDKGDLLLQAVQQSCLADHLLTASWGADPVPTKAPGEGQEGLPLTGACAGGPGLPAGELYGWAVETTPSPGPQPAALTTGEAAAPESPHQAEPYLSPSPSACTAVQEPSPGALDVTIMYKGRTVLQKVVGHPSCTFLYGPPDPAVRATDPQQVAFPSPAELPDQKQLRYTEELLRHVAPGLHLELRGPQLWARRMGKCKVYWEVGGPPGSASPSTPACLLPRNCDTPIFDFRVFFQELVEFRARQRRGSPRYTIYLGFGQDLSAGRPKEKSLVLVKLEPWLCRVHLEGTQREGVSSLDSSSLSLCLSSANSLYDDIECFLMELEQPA"}
{"Sequence": "TTAGAACTGAGTCTCGAGTA", "fitted relative affinity": "-0.422 z-score"}
{"Sequence": "TTAGATTTCAGTATCTATTA", "fitted relative affinity": "0.797 z-score"}
{"Sequence": "TTAGATTTCTGTATCGATTA", "fitted relative affinity": "1.06 z-score"}
{"Sequence": "GACGGTTTCGGCTCCGGGAC", "fitted relative affinity": "3.34 z-score"}
{"Sequence": "ATAGATTTCAGACTGGATTA", "fitted relative affinity": "0.0493 z-score"}
{"Sequence": "TTGCCTTTTGCTTTACTGAT", "fitted relative affinity": "3.34 z-score"}
{"Sequence": "TTAGGTTACGGTATCGGTTA", "fitted relative affinity": "0.952 z-score"}
{"Sequence": "TTTGCTTTCTTTTATGCTCT", "fitted relative affinity": "2.75 z-score"}
{"Sequence": "TCACCTTTCTCCATGGGACT", "fitted relative affinity": "1.93 z-score"}
{"data": "Single results of other studies"}
{"Molecule": "PhoQ, residues 284 288 289 292 302 303 SMYGEC", "target": "PhoP, residues 12 14 15 18 19 VQALL (Escherichia coli, UniProt P23836)", "assay": "Sort-seq, item: YFP reporter", "system": "E. coli", "conditions": "PhoQ-PhoP variant library, together with: 10 µM Mg2+", "how to read": "baseline: high Mg2+ state, higher = stronger signaling", "quantity": "fold induction", "value": 13.6}
